Experimental data of several laboratories.
Numbered parts are unrelated; each lists some results of a single study. Positions count from the first letter of the parent shown.
UniProt P28222, sequence (whole entry, looked up): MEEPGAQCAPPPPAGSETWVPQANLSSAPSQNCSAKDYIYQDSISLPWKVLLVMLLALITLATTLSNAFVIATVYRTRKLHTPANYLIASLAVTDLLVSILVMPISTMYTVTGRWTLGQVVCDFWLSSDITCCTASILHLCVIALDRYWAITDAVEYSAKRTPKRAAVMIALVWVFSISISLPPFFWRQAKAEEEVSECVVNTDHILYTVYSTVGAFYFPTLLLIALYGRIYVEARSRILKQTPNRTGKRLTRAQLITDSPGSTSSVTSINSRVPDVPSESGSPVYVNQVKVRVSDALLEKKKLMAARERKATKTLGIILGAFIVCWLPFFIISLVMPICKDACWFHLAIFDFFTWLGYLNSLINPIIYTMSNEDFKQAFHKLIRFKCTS

Study 1
Target: CCNA1, cyclin fold, Cln2 fusion (human)
Technique: yeast growth competition, sequencing
Medium: yeast
Notes: weak parent motif
Baseline: not given
Reading: higher = stronger binding
Measurement: normalised enrichment score
Parent: viral docking peptide; CKVKRKLFGSENI
CKVKRKLLGSENI [F8L]: 0.306
CKVKRKLAGSENI [F8A]: 0.241
CAVKRKLFGSENI [K2A]: 0.496
CKVKRKLFGSEAI [N12A]: 0.239
CKVKRKAFGSENI [L7A]: 0.352
CKVKRALFGSENI [K6A]: 0.43
CKVKKKLLGSENI [R5K F8L]: -0.0199
CKVKRKLFGSANI [E11A]: 0.473
CKVKAKLFGSENI [R5A]: 0.245

Study 2
Target: Histone acetyltransferase KAT6A, winged helix 1, GST fusion (KAT6A, Homo sapiens, UniProt Q92794, residues 1-85)
Technique: protein binding microarray
Form: double-stranded DNA, one strand shown
Medium: in vitro
Tested at: not given
Notes: 8-mer, flanks averaged, mean of 2 arrays, mostly near background
Baseline: not given
Reading: higher = stronger binding
Measurement: E-score
Residues (chain): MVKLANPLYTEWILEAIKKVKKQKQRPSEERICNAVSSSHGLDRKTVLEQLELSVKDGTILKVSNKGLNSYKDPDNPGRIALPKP
GTGGCCCA: -0.132
CATCAACA: 0.0591
AGCAACTA: -0.157
ACTCATTC: -0.0137
ATGGGGCC: 0.017
GCAACGAC: 0.0635
AGTCGAAC: -0.155
AAGACTGA: -0.177

Study 3
Target: vanadate, free oxyanion
Technique: microfluidic competitive inhibition
Medium: in vitro, cell-free expressed
Tested at: not given
Notes: derived from inhibition constants, unchanged parent 676 nM
Reading: lower = stronger binding
Measurement: oxyanion analog dissociation constant
Parent: PafA, mature enzyme, eGFP fusion (Elizabethkingia meningoseptica, UniProt Q9KJX5); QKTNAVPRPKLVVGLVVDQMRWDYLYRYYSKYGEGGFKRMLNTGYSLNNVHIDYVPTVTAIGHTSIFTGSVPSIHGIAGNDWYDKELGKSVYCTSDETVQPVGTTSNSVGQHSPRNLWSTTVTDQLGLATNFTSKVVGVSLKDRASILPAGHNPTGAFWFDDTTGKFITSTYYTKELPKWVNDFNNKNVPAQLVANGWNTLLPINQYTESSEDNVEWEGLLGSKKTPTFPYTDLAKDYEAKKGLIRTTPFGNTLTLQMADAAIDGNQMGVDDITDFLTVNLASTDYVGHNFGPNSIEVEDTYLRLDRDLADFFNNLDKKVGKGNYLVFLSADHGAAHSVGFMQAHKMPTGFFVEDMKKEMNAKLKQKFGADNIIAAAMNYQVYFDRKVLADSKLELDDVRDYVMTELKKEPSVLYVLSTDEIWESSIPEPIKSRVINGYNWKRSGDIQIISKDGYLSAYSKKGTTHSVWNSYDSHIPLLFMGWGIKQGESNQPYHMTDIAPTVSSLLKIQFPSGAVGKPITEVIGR
Y92V: 2.63 µM
E176V: 656 nM
W217V: 847 nM
T465V: 577 nM
Q125G: 613 nM
N4G: 625 nM
Y238V: 532 nM
S426V: 554 nM
W22V: 780 nM
N294G: 854 nM
Y459G: 598 nM
D398V: 1.1 µM
T164G: 747 nM
I263V: 576 nM
V516G: 589 nM
R246G: 1.25 µM

Mixed results
CNC(=N)NCCC[C@H](NC(=O)[C@H](CC(C)C)NC(=O)NNC(=O)[C@H](Cc1ccccc1)NC(=O)[C@H](CO)NC(=O)[C@H](CC(N)=O)NC(=O)[C@@H](Cc1ccncc1)NC(=O)[C@H](N)Cc1ccc(O)cc1)C(=O)N[C@@H](Cc1ccccc1)C(N)=O — inhibition (5-hydroxytryptamine receptor 1B (HTR1B, Homo sapiens, UniProt P28222); ligand displacement, radioligand; 10 µM): 29.3%

For quick reference, copied from above (study 1):
CKVKRKAFGSENI [L7A]: 0.352
CKVKRALFGSENI [K6A]: 0.43
CKVKKKLLGSENI [R5K F8L]: -0.0199
CKVKRKLFGSANI [E11A]: 0.473
